{"data": "Results gathered from unrelated publications", "note": "Parts stem from different laboratories: compare values within a part only. “And” joins repeats or separate records; there may be more than shown.", "sequence of UniProt P08588 (whole entry, looked up)": "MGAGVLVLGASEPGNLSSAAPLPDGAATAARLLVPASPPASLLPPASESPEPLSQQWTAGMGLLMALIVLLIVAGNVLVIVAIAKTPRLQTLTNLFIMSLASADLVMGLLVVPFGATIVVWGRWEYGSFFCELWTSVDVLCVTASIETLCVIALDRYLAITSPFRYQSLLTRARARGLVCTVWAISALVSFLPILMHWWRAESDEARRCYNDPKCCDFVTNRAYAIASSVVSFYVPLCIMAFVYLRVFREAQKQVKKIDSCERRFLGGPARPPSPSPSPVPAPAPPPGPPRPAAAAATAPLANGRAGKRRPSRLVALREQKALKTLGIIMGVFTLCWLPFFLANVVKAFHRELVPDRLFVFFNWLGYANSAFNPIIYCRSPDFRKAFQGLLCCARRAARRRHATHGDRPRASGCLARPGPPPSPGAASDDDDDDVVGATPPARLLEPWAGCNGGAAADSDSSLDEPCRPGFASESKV", "sequence of UniProt P47898 (whole entry, looked up)": "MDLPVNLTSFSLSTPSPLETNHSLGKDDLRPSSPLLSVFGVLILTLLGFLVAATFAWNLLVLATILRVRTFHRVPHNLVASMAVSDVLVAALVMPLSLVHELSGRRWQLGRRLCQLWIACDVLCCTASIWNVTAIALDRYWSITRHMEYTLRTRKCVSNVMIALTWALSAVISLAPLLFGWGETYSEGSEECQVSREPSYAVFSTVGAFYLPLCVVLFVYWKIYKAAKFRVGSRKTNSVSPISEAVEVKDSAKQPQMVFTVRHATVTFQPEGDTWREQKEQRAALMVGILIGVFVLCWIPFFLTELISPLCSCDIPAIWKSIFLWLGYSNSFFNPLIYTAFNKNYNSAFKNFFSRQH", "sequence of UniProt P21728 (whole entry, looked up)": "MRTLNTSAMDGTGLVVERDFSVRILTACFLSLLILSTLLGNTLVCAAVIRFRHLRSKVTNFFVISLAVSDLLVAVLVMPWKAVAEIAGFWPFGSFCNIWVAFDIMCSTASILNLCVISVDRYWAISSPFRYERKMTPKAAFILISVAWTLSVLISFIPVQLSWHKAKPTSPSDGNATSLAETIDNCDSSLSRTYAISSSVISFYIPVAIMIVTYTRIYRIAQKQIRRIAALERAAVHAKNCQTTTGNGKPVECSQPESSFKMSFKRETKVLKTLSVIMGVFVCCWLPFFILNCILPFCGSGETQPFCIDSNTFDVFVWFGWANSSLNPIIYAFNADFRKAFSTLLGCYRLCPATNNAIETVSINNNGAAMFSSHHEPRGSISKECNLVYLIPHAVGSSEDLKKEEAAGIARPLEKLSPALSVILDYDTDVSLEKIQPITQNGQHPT", "sequence of UniProt P08173 (whole entry, looked up)": "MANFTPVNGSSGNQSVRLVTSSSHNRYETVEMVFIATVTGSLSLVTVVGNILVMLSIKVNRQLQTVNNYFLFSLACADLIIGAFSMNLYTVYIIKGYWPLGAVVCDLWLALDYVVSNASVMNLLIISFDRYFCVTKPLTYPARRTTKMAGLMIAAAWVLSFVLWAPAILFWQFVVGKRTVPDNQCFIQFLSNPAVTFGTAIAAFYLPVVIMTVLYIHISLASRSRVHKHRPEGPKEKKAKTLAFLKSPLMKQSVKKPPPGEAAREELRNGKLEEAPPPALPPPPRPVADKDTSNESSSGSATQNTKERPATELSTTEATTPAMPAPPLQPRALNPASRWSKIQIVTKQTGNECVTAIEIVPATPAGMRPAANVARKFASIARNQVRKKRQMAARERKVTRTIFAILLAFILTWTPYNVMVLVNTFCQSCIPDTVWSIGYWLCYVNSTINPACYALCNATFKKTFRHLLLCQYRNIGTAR", "sequence of UniProt P14416 (whole entry, looked up)": "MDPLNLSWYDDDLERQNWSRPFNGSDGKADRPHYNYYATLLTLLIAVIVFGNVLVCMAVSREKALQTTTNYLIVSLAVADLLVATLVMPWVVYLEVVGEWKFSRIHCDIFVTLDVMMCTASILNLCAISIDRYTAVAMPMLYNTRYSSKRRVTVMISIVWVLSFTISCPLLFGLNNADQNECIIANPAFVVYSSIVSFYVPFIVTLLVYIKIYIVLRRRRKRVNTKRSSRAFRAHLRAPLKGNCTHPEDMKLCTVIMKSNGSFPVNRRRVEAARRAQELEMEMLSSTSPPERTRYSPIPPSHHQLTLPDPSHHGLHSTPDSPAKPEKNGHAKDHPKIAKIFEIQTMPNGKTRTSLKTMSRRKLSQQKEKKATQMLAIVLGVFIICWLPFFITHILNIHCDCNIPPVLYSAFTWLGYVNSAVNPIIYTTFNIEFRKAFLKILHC", "sequence of UniProt P28566 (whole entry, looked up)": "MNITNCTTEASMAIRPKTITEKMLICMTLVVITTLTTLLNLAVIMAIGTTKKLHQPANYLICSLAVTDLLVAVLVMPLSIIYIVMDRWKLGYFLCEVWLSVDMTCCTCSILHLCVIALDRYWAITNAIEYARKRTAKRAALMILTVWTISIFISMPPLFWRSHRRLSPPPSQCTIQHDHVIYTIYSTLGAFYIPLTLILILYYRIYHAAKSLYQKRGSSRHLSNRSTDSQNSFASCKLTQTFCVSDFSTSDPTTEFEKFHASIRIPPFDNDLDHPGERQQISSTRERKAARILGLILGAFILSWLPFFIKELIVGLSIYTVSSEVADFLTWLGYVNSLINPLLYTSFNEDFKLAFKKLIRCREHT", "sequence of UniProt Q9Y5N1 (whole entry, looked up)": "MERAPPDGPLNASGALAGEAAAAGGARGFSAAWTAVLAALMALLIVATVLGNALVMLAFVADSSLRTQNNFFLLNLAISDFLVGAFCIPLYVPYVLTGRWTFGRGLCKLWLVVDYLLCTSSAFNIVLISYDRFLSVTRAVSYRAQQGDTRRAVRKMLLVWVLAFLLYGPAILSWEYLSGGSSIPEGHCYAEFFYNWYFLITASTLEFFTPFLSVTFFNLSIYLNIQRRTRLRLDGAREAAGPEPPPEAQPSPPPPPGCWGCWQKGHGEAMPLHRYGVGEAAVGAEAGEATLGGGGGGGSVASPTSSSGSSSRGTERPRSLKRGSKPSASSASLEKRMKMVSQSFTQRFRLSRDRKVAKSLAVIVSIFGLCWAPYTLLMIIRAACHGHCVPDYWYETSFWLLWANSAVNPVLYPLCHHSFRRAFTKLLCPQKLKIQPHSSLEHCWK", "sequence of UniProt P28222 (whole entry, looked up)": "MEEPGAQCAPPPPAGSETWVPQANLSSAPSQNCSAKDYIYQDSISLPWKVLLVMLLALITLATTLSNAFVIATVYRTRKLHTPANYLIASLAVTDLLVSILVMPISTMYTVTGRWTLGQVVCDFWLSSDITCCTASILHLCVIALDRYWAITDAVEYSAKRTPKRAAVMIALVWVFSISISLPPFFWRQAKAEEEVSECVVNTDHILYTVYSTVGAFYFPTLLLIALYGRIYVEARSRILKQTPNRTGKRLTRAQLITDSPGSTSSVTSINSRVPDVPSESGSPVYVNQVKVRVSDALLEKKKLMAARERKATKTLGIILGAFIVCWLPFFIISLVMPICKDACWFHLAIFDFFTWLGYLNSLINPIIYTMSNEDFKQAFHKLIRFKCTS", "sequence of UniProt P35348 (whole entry, looked up)": "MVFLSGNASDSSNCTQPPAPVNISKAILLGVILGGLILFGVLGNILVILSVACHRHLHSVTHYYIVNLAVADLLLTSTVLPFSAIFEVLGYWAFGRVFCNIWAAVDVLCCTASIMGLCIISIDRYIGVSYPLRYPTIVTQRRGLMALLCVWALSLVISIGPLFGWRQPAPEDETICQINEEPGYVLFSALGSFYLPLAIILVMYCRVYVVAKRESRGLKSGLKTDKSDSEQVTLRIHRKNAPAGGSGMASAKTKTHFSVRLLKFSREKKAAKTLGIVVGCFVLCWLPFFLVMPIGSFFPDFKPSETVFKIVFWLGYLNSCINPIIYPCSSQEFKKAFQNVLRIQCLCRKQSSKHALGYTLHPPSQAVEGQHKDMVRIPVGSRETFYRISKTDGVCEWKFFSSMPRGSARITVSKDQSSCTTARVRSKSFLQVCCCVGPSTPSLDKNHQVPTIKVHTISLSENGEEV"}
{"data": "Study 1", "Structure (SMILES)": "N#CN1CC[C@H](C(=O)Nc2nc3c(s2)CN(C(=O)CN=[N+]=[N-])CC3)C1", "concentration": "10 µM"}
{"target": "HRH2 (Homo sapiens, UniProt P25021)", "test": "ligand displacement", "inhibition [%]": 0.58}
{"target": "HTR1B (Homo sapiens, UniProt P28222)", "test": "binding, radioligand binding", "inhibition [%]": 1.57}
{"target": "DRD1 (Homo sapiens, UniProt P21728)", "test": "ligand displacement", "inhibition [%]": -15.9}
{"target": "CHRM4 (Homo sapiens, UniProt P08173)", "test": "ligand displacement", "inhibition [%]": 4.84}
{"target": "DRD2 (Homo sapiens, UniProt P14416)", "test": "ligand displacement", "inhibition [%]": 0.55}
{"target": "ADRA1A (Homo sapiens, UniProt P35348)", "test": "ligand displacement", "inhibition [%]": 11.2}
{"target": "HTR5A (Homo sapiens, UniProt P47898)", "test": "cell-free assay", "inhibition [%]": 11.8}
{"target": "HTR1E (Homo sapiens, UniProt P28566)", "test": "cell-free assay", "inhibition [%]": 2.35}
{"target": "HRH3 (Homo sapiens, UniProt Q9Y5N1)", "test": "ligand displacement", "inhibition [%]": -5.98}
{"target": "ADRA2B (Homo sapiens, UniProt P18089)", "test": "ligand displacement", "inhibition [%]": -1.02}
{"target": "ADRB3 (Homo sapiens, UniProt P13945)", "test": "ligand displacement", "inhibition [%]": -3.31}
{"target": "ADRB1 (Homo sapiens, UniProt P08588)", "test": "ligand displacement", "inhibition [%]": -7.19}
{"target": "HTR1D (Homo sapiens, UniProt P28221)", "test": "cell-free assay", "inhibition [%]": -0.37}
{"data": "Study 2", "target": "Cyclin-dependent kinase 1, with cyclin B (CDK1, Homo sapiens, UniProt P06493)", "observed": "enzyme activity", "action": "inhibitor", "concentration": "0.5 µM", "reference": "control", "sequence of UniProt P06493 (whole entry, looked up)": "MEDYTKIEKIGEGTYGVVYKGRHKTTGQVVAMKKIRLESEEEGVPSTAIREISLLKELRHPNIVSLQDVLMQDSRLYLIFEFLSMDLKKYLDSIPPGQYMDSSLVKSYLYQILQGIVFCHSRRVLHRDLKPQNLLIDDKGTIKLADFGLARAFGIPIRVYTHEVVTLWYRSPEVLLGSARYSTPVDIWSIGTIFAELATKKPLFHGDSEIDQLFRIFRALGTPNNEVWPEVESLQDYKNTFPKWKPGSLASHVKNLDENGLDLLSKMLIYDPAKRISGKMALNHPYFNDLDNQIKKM"}
{"SMILES": "CCOC(=O)c1c(C)[nH]c(/C=C2\\C(=O)Nc3ccccc32)c1C", "remaining activity": "100%"}
{"SMILES": "Cn1sc(=O)n(Cc2ccccc2)c1=O", "remaining activity": "95.7%"}
{"SMILES": "N#CC(C#N)=C(N)/C(C#N)=C/c1ccc(O)cc1", "remaining activity": "111%"}
{"SMILES": "COc1ccc(OC)c2c(=S)c3ccccc3[nH]c12", "remaining activity": "97.8%"}
{"SMILES": "O=C(Nc1cccc(Nc2cc(Nc3cccc(C(F)(F)F)c3)ncn2)c1)C1CC1", "remaining activity": "96.4%"}
{"SMILES": "O=S(=O)(c1cccc2cnccc12)N1CCCNCC1", "remaining activity": "92.7%"}
{"SMILES": "Cc1ccc(Nc2nccc(N(C)c3ccc4c(C)n(C)nc4c3)n2)cc1S(N)(=O)=O", "remaining activity": "99.6%"}
{"SMILES": "O=C(CCCc1ccc(-c2ccccc2F)cc1)Nc1ccc(O)cc1", "remaining activity": "102%"}
{"SMILES": "Oc1ccc(-c2nc(-c3ccncc3)c(-c3ccc(F)cc3)[nH]2)cc1", "remaining activity": "99%"}
{"SMILES": "CO[C@H]1C[C@@H]2CC[C@@H](C)[C@@](O)(O2)C(=O)C(=O)N2CCCC[C@H]2C(=O)O[C@H]([C@H](C)C[C@@H]2CC[C@@H](O)[C@H](OC)C2)CC(=O)[C@H](C)/C=C(\\C)[C@@H](O)[C@@H](OC)C(=O)[C@H](C)C[C@H](C)/C=C/C=C/C=C/1C", "remaining activity": "103%"}
{"data": "Study 3", "target": "Beta-1 adrenergic receptor (ADRB1, Homo sapiens, UniProt P08588)", "action": "agonist"}
{"SMILES": "CC(C)(C)NC[C@H](O)COc1cccc2c1CCCC2=O", "EC50 [µM]": "≥ 100"}
{"SMILES": "COc1ccccc1C(=O)Nc1ccc2ccccc2n1", "EC50 [µM]": "≥ 100"}
{"SMILES": "O=C1c2cnc(-c3cn[nH]c3)nc2OCCN1Cc1ccc(F)cc1F", "EC50 [µM]": "≥ 100"}
{"SMILES": "COc1ccccc1N1CCN(CC[C@H]2CN(C(=O)NC(C)C)CC[C@H]2CC(=O)O)CC1", "EC50 [µM]": 28.2}
{"SMILES": "COc1cc(CNCCCO)ccc1OCC(O)CN1CCSCC1 (stereo not shown)", "EC50 [µM]": "≥ 100"}
{"SMILES": "CCOc1ccc(C(=O)N2CCN(c3ccccc3OC)CC2)cc1", "EC50 [µM]": "≥ 100"}
{"SMILES": "Fc1ccc(-c2nnc3ccc(N4CCN(c5ccccn5)CC4)nn23)nc1", "EC50 [µM]": "≥ 100"}
{"SMILES": "CC1(C)Cc2c(c(N3CCOCC3)nc3sc(C(=O)Nc4cccc(Cl)c4)c(N)c23)CO1", "EC50 [µM]": "≥ 100"}
{"SMILES": "O=c1cc(-c2ccccn2)oc2c(NC3CCOCC3)nccc12", "EC50 [µM]": "≥ 100"}
{"SMILES": "COc1ccccc1N1CCN([S+](=O)([O-])c2ccc(Cl)c(C)c2)CC1", "EC50 [µM]": "≥ 100"}
{"SMILES": "CC(C)(C)c1ccc(O)c(O)c1", "EC50 [µM]": "≥ 100"}
{"data": "Study 4", "target": "Calcium/calmodulin-dependent protein kinase type II subunit alpha (CAMK2A, Homo sapiens, UniProt Q9UQM7)", "observed": "enzyme activity", "action": "inhibitor", "concentration": "10 µM", "sequence of UniProt Q9UQM7 (whole entry, looked up)": "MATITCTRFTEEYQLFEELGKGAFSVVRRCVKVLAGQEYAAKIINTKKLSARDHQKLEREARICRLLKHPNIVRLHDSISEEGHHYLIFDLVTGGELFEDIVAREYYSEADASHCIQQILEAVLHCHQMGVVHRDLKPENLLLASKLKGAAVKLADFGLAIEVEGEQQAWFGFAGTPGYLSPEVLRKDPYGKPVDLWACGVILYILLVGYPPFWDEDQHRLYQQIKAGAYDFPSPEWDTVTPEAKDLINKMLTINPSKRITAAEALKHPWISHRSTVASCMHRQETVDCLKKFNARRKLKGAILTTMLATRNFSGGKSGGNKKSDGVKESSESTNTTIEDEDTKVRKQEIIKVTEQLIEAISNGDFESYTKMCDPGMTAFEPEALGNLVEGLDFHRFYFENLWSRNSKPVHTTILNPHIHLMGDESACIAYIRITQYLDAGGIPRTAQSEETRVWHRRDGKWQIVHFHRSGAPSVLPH"}
{"SMILES": "O=C1C[C@@H](c2ccc(O)c(O)c2)Oc2cc(O)cc(O)c21", "inhibition": "-7%"}
{"SMILES": "C=C1CC[C@@H]2[C@](C)(CO)[C@H](O)CC[C@@]2(C)[C@@H]1C/C=C1/C(=O)OC[C@H]1O", "inhibition": "-6%"}
{"SMILES": "CO[C@H]1[C@H](O)[C@@H](O)[C@@H](O)[C@H](O)[C@@H]1O", "inhibition": "-8%"}
{"SMILES": "CC(C)C[C@@](O)(CC(=O)OCc1ccc(O[C@@H]2O[C@H](CO)[C@@H](O)[C@H](O)[C@H]2O)cc1)C(=O)OCc1ccc(O[C@@H]2O[C@H](CO)[C@@H](O)[C@H](O)[C@H]2O)cc1", "inhibition": "-16%"}
{"SMILES": "CCCOC(C(=O)OC1CCN(C)CC1)(c1ccccc1)c1ccccc1", "inhibition": "3%"}
{"SMILES": "O=c1[nH]cnc2c1ncn2[C@@H]1O[C@H](CO)[C@@H](O)[C@H]1O", "inhibition": "-0.05% and 0.2%"}
{"SMILES": "C=C[C@](C)(O)CC[C@H]1C(=C)CC[C@H]2C(C)(C)CCC[C@]12C", "inhibition": "-33%"}
{"SMILES": "Oc1cc(O)cc(/C=C/c2ccccc2)c1", "inhibition": "-24%"}
{"SMILES": "Cn1ncnc1[C@H]1c2n[nH]c(=O)c3cc(F)cc(c23)N[C@@H]1c1ccc(F)cc1", "inhibition": "-0.11% and -0.1%"}
{"SMILES": "O=C[C@H](O)[C@@H](O)[C@@H](CO)O[C@@H]1OC[C@@H](O[C@@H]2OC[C@@H](O[C@@H]3OC[C@@H](O[C@@H]4OC[C@@H](O)[C@H](O)[C@H]4O)[C@H](O)[C@H]3O)[C@H](O)[C@H]2O)[C@H](O)[C@H]1O", "inhibition": "-33%"}
{"SMILES": "COc1ccc2nc3cc(Cl)ccc3c(Nc3cc(CN4CCCC4)c(O)c(CN4CCCC4)c3)c2n1", "inhibition": "6%"}
{"SMILES": "CCCCCCCC(=O)CCc1ccc(O)c(OC)c1", "inhibition": "-18%"}
{"note": "For quick reference, copied from above (study 1):"}
{"target": "HTR1B (Homo sapiens, UniProt P28222)", "test": "binding, radioligand binding", "inhibition [%]": 1.57}
{"target": "ADRA2B (Homo sapiens, UniProt P18089)", "test": "ligand displacement", "inhibition [%]": -1.02}
{"target": "HTR1E (Homo sapiens, UniProt P28566)", "test": "cell-free assay", "inhibition [%]": 2.35}
{"target": "HRH3 (Homo sapiens, UniProt Q9Y5N1)", "test": "ligand displacement", "inhibition [%]": -5.98}
{"target": "HTR1D (Homo sapiens, UniProt P28221)", "test": "cell-free assay", "inhibition [%]": -0.37}
{"target": "ADRB1 (Homo sapiens, UniProt P08588)", "test": "ligand displacement", "inhibition [%]": -7.19}
{"target": "DRD2 (Homo sapiens, UniProt P14416)", "test": "ligand displacement", "inhibition [%]": 0.55}
